Published values of several laboratories.
Several values in a cell are separate wells, animals, samples, runs or records. Numbers after ± are the reported error.
lasR: Transcriptional activator protein LasR (lasR, Pseudomonas aeruginosa, UniProt P25084)
Uncharacterized hydrolase SAUSA300_2518: Uncharacterized hydrolase SAUSA300_2518 (Staphylococcus aureus, UniProt Q2FDS6)
Oprm1: Mu-type opioid receptor (Oprm1, Rattus norvegicus, UniProt P33535)
Sequence of UniProt D0VWV4 (whole entry, looked up): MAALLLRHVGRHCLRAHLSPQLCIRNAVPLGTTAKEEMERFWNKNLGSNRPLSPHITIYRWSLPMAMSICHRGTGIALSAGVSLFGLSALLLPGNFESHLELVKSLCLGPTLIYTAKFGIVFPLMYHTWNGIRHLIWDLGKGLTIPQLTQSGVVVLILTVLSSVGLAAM
Sequence of UniProt A5GZW8 (whole entry, looked up): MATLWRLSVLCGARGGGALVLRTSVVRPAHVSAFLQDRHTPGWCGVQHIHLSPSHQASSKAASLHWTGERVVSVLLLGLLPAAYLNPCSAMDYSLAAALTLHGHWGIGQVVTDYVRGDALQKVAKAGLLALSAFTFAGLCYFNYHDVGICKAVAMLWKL
Sequence of UniProt Q14145 (whole entry, looked up): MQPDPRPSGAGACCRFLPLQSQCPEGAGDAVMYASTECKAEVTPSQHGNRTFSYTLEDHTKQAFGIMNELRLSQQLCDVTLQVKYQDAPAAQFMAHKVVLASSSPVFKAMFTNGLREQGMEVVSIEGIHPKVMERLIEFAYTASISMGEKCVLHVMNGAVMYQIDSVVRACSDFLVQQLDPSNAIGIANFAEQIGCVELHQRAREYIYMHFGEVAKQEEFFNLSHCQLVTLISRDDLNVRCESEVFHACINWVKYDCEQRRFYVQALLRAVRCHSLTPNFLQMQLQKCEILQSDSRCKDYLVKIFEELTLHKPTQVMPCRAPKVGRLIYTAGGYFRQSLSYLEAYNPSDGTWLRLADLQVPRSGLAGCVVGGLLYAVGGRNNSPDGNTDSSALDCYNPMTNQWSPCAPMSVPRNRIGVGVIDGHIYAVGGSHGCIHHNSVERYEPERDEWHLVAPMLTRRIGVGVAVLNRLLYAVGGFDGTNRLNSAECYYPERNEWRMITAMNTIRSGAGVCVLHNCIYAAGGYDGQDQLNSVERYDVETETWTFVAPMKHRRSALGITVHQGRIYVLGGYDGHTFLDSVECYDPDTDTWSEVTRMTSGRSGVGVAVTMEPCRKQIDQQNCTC
Sequence of UniProt Q9H2X3 (whole entry, unmodified, looked up): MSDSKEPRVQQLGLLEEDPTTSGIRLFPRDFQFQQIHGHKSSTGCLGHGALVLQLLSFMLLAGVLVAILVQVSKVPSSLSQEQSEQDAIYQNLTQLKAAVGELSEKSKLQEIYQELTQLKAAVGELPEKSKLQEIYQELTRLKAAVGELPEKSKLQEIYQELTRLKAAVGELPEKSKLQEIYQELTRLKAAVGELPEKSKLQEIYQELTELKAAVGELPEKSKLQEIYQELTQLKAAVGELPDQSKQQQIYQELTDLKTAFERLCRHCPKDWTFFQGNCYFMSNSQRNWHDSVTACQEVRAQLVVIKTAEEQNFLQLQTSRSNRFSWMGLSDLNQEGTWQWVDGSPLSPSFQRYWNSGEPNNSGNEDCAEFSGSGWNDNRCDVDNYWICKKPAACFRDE
Sequence of UniProt P33535 (whole entry, looked up): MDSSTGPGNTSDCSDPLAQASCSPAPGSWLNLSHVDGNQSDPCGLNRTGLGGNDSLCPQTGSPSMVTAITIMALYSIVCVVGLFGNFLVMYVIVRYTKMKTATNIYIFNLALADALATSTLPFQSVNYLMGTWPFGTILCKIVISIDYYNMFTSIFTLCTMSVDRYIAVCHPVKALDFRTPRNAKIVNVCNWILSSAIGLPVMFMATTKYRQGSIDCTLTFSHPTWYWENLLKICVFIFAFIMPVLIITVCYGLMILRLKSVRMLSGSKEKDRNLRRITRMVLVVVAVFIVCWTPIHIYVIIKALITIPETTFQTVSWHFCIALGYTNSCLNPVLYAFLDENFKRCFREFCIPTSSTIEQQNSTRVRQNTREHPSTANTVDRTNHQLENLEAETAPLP
Sequence of UniProt Q007T0 (whole entry, looked up): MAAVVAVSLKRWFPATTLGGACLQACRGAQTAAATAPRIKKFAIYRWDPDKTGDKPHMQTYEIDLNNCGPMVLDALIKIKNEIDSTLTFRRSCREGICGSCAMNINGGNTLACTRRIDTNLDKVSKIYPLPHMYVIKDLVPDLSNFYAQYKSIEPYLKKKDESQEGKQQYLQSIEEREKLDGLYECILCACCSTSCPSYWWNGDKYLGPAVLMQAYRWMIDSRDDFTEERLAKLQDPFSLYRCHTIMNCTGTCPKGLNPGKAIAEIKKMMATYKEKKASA
Sequence of UniProt Q9UH17 (whole entry, looked up): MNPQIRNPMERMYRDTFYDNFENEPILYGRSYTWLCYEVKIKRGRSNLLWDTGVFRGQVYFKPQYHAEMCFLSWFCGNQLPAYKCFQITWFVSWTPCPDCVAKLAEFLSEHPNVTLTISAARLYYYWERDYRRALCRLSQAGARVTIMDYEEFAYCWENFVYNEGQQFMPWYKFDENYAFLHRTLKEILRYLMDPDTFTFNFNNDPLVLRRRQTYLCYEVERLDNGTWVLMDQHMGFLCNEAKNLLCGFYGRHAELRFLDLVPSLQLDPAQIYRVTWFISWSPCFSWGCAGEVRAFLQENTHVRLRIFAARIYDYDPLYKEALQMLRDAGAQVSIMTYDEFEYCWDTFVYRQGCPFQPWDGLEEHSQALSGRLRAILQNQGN
Sequence of UniProt P54803 (whole entry, looked up): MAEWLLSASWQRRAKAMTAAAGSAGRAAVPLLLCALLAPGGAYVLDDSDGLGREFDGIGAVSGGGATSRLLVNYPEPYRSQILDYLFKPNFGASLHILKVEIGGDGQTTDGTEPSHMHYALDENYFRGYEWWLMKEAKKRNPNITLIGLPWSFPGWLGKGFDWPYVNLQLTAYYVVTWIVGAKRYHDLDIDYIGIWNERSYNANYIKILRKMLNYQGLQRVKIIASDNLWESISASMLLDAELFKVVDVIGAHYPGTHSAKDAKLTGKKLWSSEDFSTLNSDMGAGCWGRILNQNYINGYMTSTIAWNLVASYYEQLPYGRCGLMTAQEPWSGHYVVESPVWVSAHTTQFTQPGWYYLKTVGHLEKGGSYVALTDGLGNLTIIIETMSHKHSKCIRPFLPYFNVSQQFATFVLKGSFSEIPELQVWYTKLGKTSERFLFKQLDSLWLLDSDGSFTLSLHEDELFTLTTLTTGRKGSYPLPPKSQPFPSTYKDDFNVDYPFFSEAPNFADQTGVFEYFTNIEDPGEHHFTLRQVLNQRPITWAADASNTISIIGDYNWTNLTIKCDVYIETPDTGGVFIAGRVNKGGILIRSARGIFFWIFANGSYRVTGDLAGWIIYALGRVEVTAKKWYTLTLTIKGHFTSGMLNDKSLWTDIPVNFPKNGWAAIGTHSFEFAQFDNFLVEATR
Sequence of UniProt Q6DWJ6 (whole entry, looked up): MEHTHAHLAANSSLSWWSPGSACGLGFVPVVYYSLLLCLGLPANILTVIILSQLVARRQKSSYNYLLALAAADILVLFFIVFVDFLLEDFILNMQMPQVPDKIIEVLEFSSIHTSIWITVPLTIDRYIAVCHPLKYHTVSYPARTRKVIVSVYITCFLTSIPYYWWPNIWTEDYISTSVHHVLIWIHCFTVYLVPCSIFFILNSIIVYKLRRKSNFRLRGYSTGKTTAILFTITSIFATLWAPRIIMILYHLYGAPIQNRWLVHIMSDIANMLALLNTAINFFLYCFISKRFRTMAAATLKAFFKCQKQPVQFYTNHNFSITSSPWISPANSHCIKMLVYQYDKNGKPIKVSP
Sequence of UniProt P07026 (whole entry, looked up): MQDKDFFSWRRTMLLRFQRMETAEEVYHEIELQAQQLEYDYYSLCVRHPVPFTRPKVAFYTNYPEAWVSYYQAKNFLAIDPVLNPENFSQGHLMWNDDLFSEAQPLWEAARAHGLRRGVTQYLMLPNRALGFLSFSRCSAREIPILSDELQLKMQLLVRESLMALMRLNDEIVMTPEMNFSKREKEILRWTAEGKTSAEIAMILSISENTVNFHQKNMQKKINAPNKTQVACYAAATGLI
Sequence of UniProt Q9UPE1 (whole entry, looked up): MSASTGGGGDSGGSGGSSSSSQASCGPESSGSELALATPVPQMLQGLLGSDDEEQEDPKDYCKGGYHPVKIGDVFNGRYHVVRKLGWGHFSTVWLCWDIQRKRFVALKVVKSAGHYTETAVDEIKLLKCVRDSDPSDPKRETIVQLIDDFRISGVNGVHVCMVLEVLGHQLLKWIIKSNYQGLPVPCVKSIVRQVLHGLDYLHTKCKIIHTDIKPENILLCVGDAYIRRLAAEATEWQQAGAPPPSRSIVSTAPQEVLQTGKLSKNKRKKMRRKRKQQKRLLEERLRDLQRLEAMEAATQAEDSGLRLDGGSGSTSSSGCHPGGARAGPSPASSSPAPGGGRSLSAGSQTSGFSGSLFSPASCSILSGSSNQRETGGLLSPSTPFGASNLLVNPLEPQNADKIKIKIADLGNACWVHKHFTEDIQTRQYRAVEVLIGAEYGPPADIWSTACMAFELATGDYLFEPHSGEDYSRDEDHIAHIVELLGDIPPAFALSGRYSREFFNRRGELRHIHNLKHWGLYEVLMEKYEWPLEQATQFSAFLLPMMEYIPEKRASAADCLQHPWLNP

Compound | target | assay | test system | setting | how to read | endpoint | result
CCCCCCCCCC(=O)CC(=O)Nc1cccc(OC)c1 | lasR | reporter gene, agonist | Escherichia coli JLD271 | 10 µM, pSC11 and pJN105L plasmids | reference: OdDHL at same concentration | agonist activity | 1%
O=C(Nc1ccncc1)c1ccccc1OS(=O)(=O)F | Uncharacterized hydrolase SAUSA300_2518 | enzyme activity, inhibitor, fluorogenic substrate | – | 5 µM | – | remaining activity | 51.2% and 51.3% and 49.5%
CN(C)[C@H]1C[C@@]23CC[C@@]4(O2)C(=CC[C@]2(C)[C@@H](c5ccc6ccncc6c5)CC[C@H]24)C=C3[C@@H](O)[C@@H]1O | ARAF (Homo sapiens, UniProt P10398) | ATP probe labelling, inhibitor, KiNativ profiling | – | 1 µM | – | inhibition | -4%
COc1ccc(CC(=O)N[C@H]2CCOC2=O)cc1 | Regulatory protein SdiA (sdiA, Escherichia coli, UniProt P07026) | – | – | – | – | Emax | 99.8%
C#CCCCCOc1ccc2c(c1)CCCN2C(=O)CCl | GALC (Homo sapiens, UniProt P54803) | mass spectrometry profiling | H460 cell lysate | 100 µM over 10 µM, UniProt P54803 | reference: high over low concentration | reactivity ratio | 1.39
CN1CCCN(C(=O)c2ccc(S(=O)(=O)F)cc2)c2ccccc21 | Uncharacterized hydrolase SAUSA300_2518 | enzyme activity, inhibitor, fluorogenic substrate | – | 50 µM | – | remaining activity | 103%
N=C(N)NCc1cn([C@@H]2[C@@H](OCCCl)O[C@H](CO)[C@@H](O)[C@@H]2O)nn1 | C-type lectin domain family 4 member M, extracellular domain (CLEC4M, Homo sapiens, UniProt Q9H2X3) | isothermal titration calorimetry | – | – | – | ΔH | -48.2 kJ/mol and -48.8 kJ/mol
CC#CC(=O)NC[C@H](NC(=O)[C@H](CC1CCCCC1)NC(=O)[C@H](CCC(N)=O)NC(C)=O)C(=O)N[C@@H](CC(C)C)C(=O)N[C@@H](Cc1ccccc1)C(=O)O | Beta sliding clamp (Escherichia coli, UniProt P0A988) | binding, isothermal titration calorimetry | – | 22 °C | – | -TΔS | 11.3 kJ/mol
CCOC(=O)[C@@H]1Cc2c(cc([N+](=O)[O-])cc2[N+](=O)[O-])[C@H](O)[C@]12C(=O)Nc1ccc(Br)cc12 | NUAK2 (Homo sapiens, UniProt Q9H093) | KINOMEscan | – | 100 nM | reference: DMSO control | remaining binding | 54%
CN(C)CCCSC(=S)N1CCN(C(=O)/C=C/c2coc3ccccc3c2=O)CC1 | Nucleoprotein (N, Tomato spotted wilt virus, UniProt P25999, Y184A) | binding, microscale thermophoresis | – | 31.25 µM | dose series | MST response | 840 a.u.
CC(C)[C@H]1NC(=O)C[C@H]2/C=C/CCSSC[C@@H](NC1=O)C(=O)N[C@H](Cc1cccc3ccccc13)C(=O)NCC(=O)O2 | MAP3K8 (Homo sapiens, UniProt P41279) | enzyme activity, inhibitor | – | 10 µM | – | inhibition | 9.8%
O=C(Cc1ccc(Br)cc1)N[C@H]1CCOC1=O | lasR | plasI-LVAgfp reporter, antagonist | – | – | reference: pump-active over pump-mutant | IC50 ratio | 14
Cc1cc(-c2ccc3ccccc3c2)nnc1NCCN1CCN(C)CC1 | CCKAR (Homo sapiens, UniProt P32238) | antagonist | – | 10000 nM | reference: control | activity | 0%
O=C(NCc1cc(Br)cc(Br)c1OC(=O)c1ccccc1[N+](=O)[O-])c1ccccc1Cl | lasR | reporter gene, agonist | – | – | reference: EC50 PAO-JP2 over E. coli JLD271 | potency ratio | 9.1
CC[C@@H](C)[C@@H]1CN([C@@H](CC2CCCCC2)CN2CCC[C@H]2CN2CCNC[C@@H]2Cc2ccc3ccccc3c2)CCN1CCCC1CCCC1 | Oprm1 | radioligand binding | rat brain membranes | 500 nM, pH 7.5, 25 °C, with: 0.87 nM [3H]DAMGO | – | remaining binding | 108 ± 3.77%
CON(C(=O)c1cn(C)nc1C(F)F)C(C)Cc1c(Cl)cc(Cl)cc1Cl (stereo not drawn) | SDHD/SDHC/SDHB (Sus scrofa, UniProt A5GZW8+D0VWV4+Q007T0) | enzyme activity, inhibitor, DCIP reduction | pig | 1 µM, with: DCIP 5 µM | – | reaction velocity | 0.000664 µM/s and 0.000572 µM/s
C[C@@H](O)[C@@H]1CN([C@@H](CC2CCCCC2)CN2CCC[C@H]2CN2CCNC[C@@H]2Cc2ccc3ccccc3c2)CCN1CCc1ccc(Cl)c(Cl)c1 | Oprm1 | radioligand binding | rat brain membranes | 500 nM, pH 7.5, 25 °C, with: 0.87 nM [3H]DAMGO | – | remaining binding | 103 ± 3.6%
CC[C@H](C)[C@H](NC(=O)[C@H](CCCNC(=N)N)NC(=O)[C@H](CCCNC(=N)N)NC(=O)[C@H](CC(C)C)NC(=O)[C@H](Cc1ccccc1)NC(=O)CNC(=O)CNC(=O)[C@@H](N)Cc1ccc(O)cc1)C(=O)N[C@@H](CCCNC(=N)N)C(=O)N1CCC[C@H]1C(=O)N[C@@H](CCCCN)C(=O)N[C@@H](CC(C)C)C(=O)N[C@@H](CCCCN)C(=O)O | GPR139 (Homo sapiens, UniProt Q6DWJ6) | GαoA activation, agonist, BRET | HEK293T/17 | 40 µM | – | Emax | 116%
CC(C)CC(O)(CC(C)C)c1cn(C(=O)N2CCCC2)nn1 | GPI inositol-deacylase (Pgap1, Mus musculus, UniProt Q3UUQ7) | probe labelling, inhibitor, competitive ABPP-SILAC, refers to: Pgap1 | mouse T cells | concentration not given, 4 h, in situ, protein level | reference: treated over DMSO, lower = more inhibition | SILAC ratio | 1.27
CCCCCCCCCC(=O)CC(=O)Nc1ccccc1 | lasR | reporter gene, antagonist | Escherichia coli, JLD271 with LasR plasmid | concentration not given, with: OdDHL 2 nM | – | antagonist activity | inactive
CS(C)(=O)=Nc1ccc(-c2ccc(-c3nc4cc(O[C@@H]5CO[C@H]6[C@@H]5OC[C@H]6O)[nH]c4cc3F)cc2)cc1 | SRPK3 (Homo sapiens, UniProt Q9UPE1) | enzyme activity, inhibitor | – | 10 µM | – | inhibition | -12%
C=CC(=O)Nc1cc(-c2ccc(C(=O)N3CCCC(O)(CC)C3)cc2)ccc1F (stereo not drawn) | DNA dC->dU-editing enzyme APOBEC-3B, C-terminal domain (Homo sapiens, UniProt Q9UH17) | covalent adduct, intact protein MS | – | 5 h, 10-fold excess, 250 µM | – | unmodified protein | 36%
CCNC(=S)NN=Cc1c2ccccc2cc2ccccc12.Cc1ccc(C(C)C)cc1.[Cl-].[Cl-].[Ru+2] | Albumin (ALB, Homo sapiens, UniProt P02768) | binding, van't Hoff, Scatchard | – | concentration not given | – | enthalpy change (ΔH°) | 43.2 kJ/mol
CC(C)[C@@H]1NC(=O)[C@H](CC(N)=O)NC(=O)CNC(=O)[C@H](CC(N)=O)NC(=O)[C@H](C)NC(=O)[C@H](CC(=O)O)NC(=O)[C@H]([C@@H](C)O)NC(=O)[C@H](CCC(=O)O)NC(=O)CNC(=O)[C@H]([C@@H](C)O)NC(=O)[C@H](CCC(=O)O)NC(=O)[C@H](CCC(=O)O)NC(=O)[C@H](CC(=O)O)NC1=O | KEAP1 (Homo sapiens, UniProt Q14145) | Keap1-Nrf2 binding, inhibitor, competitive FP | – | 0.0977 µM, 30 min, with: Nrf2 peptide probe | lower = stronger inhibition | fluorescence polarization | 0.842 a.u. and 0.723 a.u.

Excerpt of the above:
Compound | target | assay | test system | setting | how to read | endpoint | result
C[C@@H](O)[C@@H]1CN([C@@H](CC2CCCCC2)CN2CCC[C@H]2CN2CCNC[C@@H]2Cc2ccc3ccccc3c2)CCN1CCc1ccc(Cl)c(Cl)c1 | Oprm1 | radioligand binding | rat brain membranes | 500 nM, pH 7.5, 25 °C, with: 0.87 nM [3H]DAMGO | – | remaining binding | 103 ± 3.6%
CC[C@H](C)[C@H](NC(=O)[C@H](CCCNC(=N)N)NC(=O)[C@H](CCCNC(=N)N)NC(=O)[C@H](CC(C)C)NC(=O)[C@H](Cc1ccccc1)NC(=O)CNC(=O)CNC(=O)[C@@H](N)Cc1ccc(O)cc1)C(=O)N[C@@H](CCCNC(=N)N)C(=O)N1CCC[C@H]1C(=O)N[C@@H](CCCCN)C(=O)N[C@@H](CC(C)C)C(=O)N[C@@H](CCCCN)C(=O)O | GPR139 (Homo sapiens, UniProt Q6DWJ6) | GαoA activation, agonist, BRET | HEK293T/17 | 40 µM | – | Emax | 116%
CC(C)CC(O)(CC(C)C)c1cn(C(=O)N2CCCC2)nn1 | GPI inositol-deacylase (Pgap1, Mus musculus, UniProt Q3UUQ7) | probe labelling, inhibitor, competitive ABPP-SILAC, refers to: Pgap1 | mouse T cells | concentration not given, 4 h, in situ, protein level | reference: treated over DMSO, lower = more inhibition | SILAC ratio | 1.27
